Results collected from several papers.
Each line is one published result; not all experiments were run side by side. Numbers after ± are the reported error.

The activity score of `c1ccc2c(c1)OCC(C1=NCCN1)O2` (stereo not drawn) is reported as 5.7 (human iPSC-derived cardiomyocytes; MyBP-C/MYH ratio, plate-normalised SD score; concentration not given, primary screen; direction not given).
With `COc1c(CCC[P+](c2ccccc2)(c2ccccc2)c2ccccc2)cc2c(c1OC)OCO2.[I-]` the TGI was -4.15 log M (HCT-15; SRB).
The CC50 of `CCN(CC)c1ccc(C=NNC(=O)CSc2nc3ccccc3c(=O)n2Cc2ccc(S(N)(=O)=O)cc2)c(O)c1` is reported as greater than 100 µM (NCI-H322M; NCI five-dose screen).
With `Nc1ncc(-c2nc(N3CCOCC3)nc(N3CCOCC3)n2)c(C(F)F)n1` the GI50 was 0.203 µM (U-2 OS; cell growth; 72 h).
The EC50 of `CC[C@H](C)[C@H](NC(=O)[C@H](CCCCN)NC(=O)[C@@H](NC(=O)[C@H](C)NC(=O)[C@H](CC(C)C)NC(=O)[C@H](CCCCN)NC(=O)[C@H](Cc1ccccc1)NC(=O)[C@H](CC(C)C)NC(=O)[C@H](Cc1c[nH]cn1)NC(=O)CNC(=O)[C@H](Cc1ccccc1)NC(=O)[C@@H](N)Cc1ccccc1)[C@@H](C)O)C(=O)N[C@H](C(=O)N1CCC[C@H]1C(=O)N[C@@H](CO)C(=O)N[C@@H](CC(C)C)C(=O)N[C@@H](Cc1ccccc1)C(=O)N[C@@H](CCC(N)=O)C(=O)N[C@@H](CS)C(N)=O)[C@@H](C)CC` is reported as 20 µM (human red blood cells; pH 5.5; baseline: Triton X-100).
`Oc1ccc(C(c2ccc(O)cc2)(C(F)(F)F)C(F)(F)F)cc1`: “S phase cells” 7.88 ± 111% (HepG2 spheroids; Hoechst flow cytometry; 0.1 µM, 24 h).
The IC50 of `COc1c(C)c2c(c(O)c1C/C=C(\C)CCC(=O)O)C(=O)OC2` is reported as 0.676 µM (bladder cancer cell lines; cell proliferation; average over lines).
For `Nc1ncnc2c1ncn2[C@@H]1O[C@@H]2COP(=O)(O)O[C@H]3[C@@H](O)[C@H](n4cnc5c(=O)[nH]cnc54)O[C@@H]3COP(=O)(O)O[C@H]2[C@H]1O`, “pathway fold enrichment” read 17.1 (HFF-1; RNA sequencing Reactome analysis, measured: Reactome R-HSA-8983711 OAS antiviral response; with: West Nile virus infection; baseline: West Nile virus infected cells, upregulated pathway).
With `COc1ccc2c(c1)[nH]c1c(C)nccc12` the methylation reduction was 2.06% (DU-145; bisulfite pyrosequencing, measured: RASSF1A promoter CpG site 15; concentration not given; baseline: vehicle).
`CN1CCN(C2(CNC3CCN(c4cccc(-c5cc6cc(F)ccc6[nH]5)c4)CC3)CCC2)CC1` has a CC50 of 5.69 µM (HCC 2998).
The viability of `CN1C(=O)[C@@]23C[C@]4([C@]56C[C@@]78SS[C@@](CO)(C(=O)N7[C@H]5Nc5ccccc56)N(C)C8=O)c5ccccc5N[C@@H]4N2C(=O)[C@]1(CO)SS3` is reported as 0.616% (HBL-1; 0.1 µM, 120 h).
With `COC(=O)/C(C)=C\C[C@@]12OC(C)(C)[C@@H]3C[C@@H](C=C4C(=O)c5c(O)c6c(c(CC=C(C)C)c5O[C@]431)O[C@](C)(CCC=C(C)C)C=C6)C2=O` the activity score was 8.8 (human iPSC-derived cardiomyocytes; MyBP-C/MYH ratio, plate-normalised SD score; concentration not given, primary screen; direction not given).
For `C/C=C(/C)C(=O)O[C@H]1C(C)=C2[C@H]([C@@H]1OC(=O)CCCCCCC)[C@@](C)(OC(C)=O)C[C@H](OC(=O)CCC)[C@@]1(O)[C@H]2OC(=O)[C@@]1(C)O`, “log2 fold change” read 1.17 (HEK293T; RNA-seq, measured: CARS mRNA; 10 µM, 6 h; baseline: vehicle).
For `COc1cc(CCC[P+](c2ccccc2)(c2ccccc2)c2ccccc2)c(OC)c2c1OCO2.[I-]`, the GI50 was -4.87 log M (HCT-15; SRB).
`O=C1N(Cc2ccccc2Cl)c2ccccc2C12NN=C(c1ccccc1)S2` (stereo not drawn) has a fold change of 1.59 (MDA-MB-468; gene expression array, measured: TFPT mRNA; 10 µM, 12 h; baseline: untreated, up).

For quick reference, copied from above:
The IC50 of `COc1c(C)c2c(c(O)c1C/C=C(\C)CCC(=O)O)C(=O)OC2` is reported as 0.676 µM (bladder cancer cell lines; cell proliferation; average over lines).
